Results gathered from unrelated publications.
Numbered parts are unrelated; each lists some results of a single study. “And” joins repeats or separate records; there may be more than shown. Numbers after ± are the reported error.

Block 1
SMILES: COc1cc(C(=O)OCCCN2CCCN(CCCOC(=O)c3cc(OC)c(OC)c(OCc4ccc([N+](=O)[O-])cc4)c3)CC2)cc(OC)c1OC
assay | system | conditions | paw withdrawal threshold
mechanical pain, von Frey test | mouse, STZ diabetic neuropathy | intravenous, 30 mg/kg, 5 h post-dose, first injection, day 8 | 0.1 g and 0.2 g and 0.44 g and 0.05 g and 0.36 g
mechanical pain, von Frey test | mouse, STZ diabetic neuropathy | intravenous, 30 mg/kg, 24 h post-dose, first injection, day 8 | 0.19 g and 0.27 g and 0.08 g and 0.13 g and 0.06 g
mechanical pain, von Frey test | mouse, STZ diabetic neuropathy | intravenous, 30 mg/kg, 1 h post-dose, third injection | 0.44 g and 0.75 g and 1.56 g and 0.4 g and 0.59 g
 | mice, STZ diabetic neuropathy | intrathecal, 10 nmol, 1 h, added: DPCPX 10 nmol, 30 min before | 0.75 g and 0.59 g and 0.65 g and 0.98 g

Block 2
Compound: Cc1ncsc1-c1ccc(C(CO)NC(=O)C2CC(O)CN2C(=O)C(C(C)C)n2cc(-c3ccc(COc4c(-c5c(C)c(F)cc6[nH]ncc56)c(C5CC5)cc5c(N6CC7CC6CN7)nc(OC6CCOCC6)nc45)cc3)nn2)cc1 (stereo not drawn)
Technique: qRT-PCR
Host: mouse, PK-59 xenograft
Matrix: tumour
Setting: unit not given
refers to | route | dose | time | reference | mRNA level
FOSL1 | intravenous | 30 mg/kg | 24 h | vehicle, same time point | 0.000864 and 0.000767 and 0.000875
DUSP6 |  | 10 mg/kg | 2 h | vehicle | 0.693 and 0.502 and 0.615
FOSL1 |  | 30 mg/kg | 6 h | vehicle | 0.086 and 0.13 and 0.083 and 0.0827 and 0.0862
ETV4 |  | 30 mg/kg | 144 h | vehicle | 0.247 and 0.317
ETV4 |  | 10 mg/kg | 6 h | vehicle | 0.464 and 0.745 and 0.846

Block 3
Compound: C[C@@H]1CN(c2ccc(-c3cc(C(=O)NCCOCCOCCOCCOCCNC(=O)Cn4cc(-c5[nH]cc(C(=O)N[C@@H](CC(N)=O)c6ccc(F)c(Cl)c6)c5-c5ccc(Cl)cc5F)cn4)ccc3F)cc2NC(=O)c2c[nH]c(=O)cc2C(F)(F)F)C[C@H](C)N1C
Observed: thermal unfolding
Technique: differential scanning fluorimetry
Tested at: 5.5 µM
Reading: higher = more unfolded
DCAF1: DDB1- and CUL4-associated factor 1 (DCAF1, Homo sapiens, UniProt Q9Y4B6)
UniProt Q9Y4B6, sequence (whole entry, looked up): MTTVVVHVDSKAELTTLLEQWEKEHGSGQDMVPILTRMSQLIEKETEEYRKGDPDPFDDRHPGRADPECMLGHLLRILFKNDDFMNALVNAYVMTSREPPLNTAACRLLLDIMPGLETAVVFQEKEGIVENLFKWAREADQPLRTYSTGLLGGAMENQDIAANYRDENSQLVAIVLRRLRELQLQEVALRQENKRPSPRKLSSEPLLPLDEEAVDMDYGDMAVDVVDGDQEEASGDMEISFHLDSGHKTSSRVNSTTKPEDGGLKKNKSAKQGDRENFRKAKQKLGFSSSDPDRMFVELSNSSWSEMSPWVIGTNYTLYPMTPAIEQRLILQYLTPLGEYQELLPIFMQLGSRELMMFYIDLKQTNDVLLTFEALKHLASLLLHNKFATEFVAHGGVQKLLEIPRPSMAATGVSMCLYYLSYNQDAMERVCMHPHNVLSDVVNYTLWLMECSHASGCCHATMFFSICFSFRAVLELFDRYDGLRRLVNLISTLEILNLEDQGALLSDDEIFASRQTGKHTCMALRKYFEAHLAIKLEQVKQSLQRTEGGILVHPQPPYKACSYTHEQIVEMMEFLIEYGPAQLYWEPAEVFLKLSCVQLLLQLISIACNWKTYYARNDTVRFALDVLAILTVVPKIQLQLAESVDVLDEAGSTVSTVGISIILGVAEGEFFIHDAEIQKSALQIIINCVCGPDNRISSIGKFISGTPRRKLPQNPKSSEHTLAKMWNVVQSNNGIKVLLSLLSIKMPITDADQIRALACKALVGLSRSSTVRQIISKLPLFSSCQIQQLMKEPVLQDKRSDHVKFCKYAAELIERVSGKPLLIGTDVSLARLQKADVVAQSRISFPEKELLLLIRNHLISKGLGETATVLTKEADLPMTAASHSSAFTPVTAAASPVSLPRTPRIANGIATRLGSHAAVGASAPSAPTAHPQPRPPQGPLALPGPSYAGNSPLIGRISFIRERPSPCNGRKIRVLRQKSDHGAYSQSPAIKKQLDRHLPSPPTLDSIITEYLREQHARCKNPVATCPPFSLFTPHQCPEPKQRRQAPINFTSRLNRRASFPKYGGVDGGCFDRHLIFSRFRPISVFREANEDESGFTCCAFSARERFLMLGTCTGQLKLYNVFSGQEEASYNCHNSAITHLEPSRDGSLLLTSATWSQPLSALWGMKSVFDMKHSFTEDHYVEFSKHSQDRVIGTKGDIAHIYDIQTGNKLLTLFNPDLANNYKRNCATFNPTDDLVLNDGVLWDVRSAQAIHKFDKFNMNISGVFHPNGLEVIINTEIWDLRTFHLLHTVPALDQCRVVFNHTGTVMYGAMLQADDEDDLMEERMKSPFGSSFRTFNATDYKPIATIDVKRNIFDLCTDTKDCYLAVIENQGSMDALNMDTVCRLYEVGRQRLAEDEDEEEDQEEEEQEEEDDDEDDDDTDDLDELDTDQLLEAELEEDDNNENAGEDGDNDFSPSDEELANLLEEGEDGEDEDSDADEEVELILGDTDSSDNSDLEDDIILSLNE
WDR5: WD repeat-containing protein 5 (WDR5, Homo sapiens, UniProt P61964)
target | temperature | SYPRO Orange fluorescence [a.u.]
DCAF1 | 66.81 °C | 56800
WDR5 | 35.4 °C | 14300
WDR5 | 37.4 °C | 14400
WDR5 | 38.6 °C | 14400
DCAF1 | 51.8 °C | 15600
DCAF1 | 67.81 °C | 56300
DCAF1 | 69.81 °C | 54700

Block 4
Structure (SMILES): CCN1/C(=C/C=C2\CCCC(/C=C/C3=[N+](CC)c4ccccc4C3(C)C)=C2NCCCCCCCCN2CCC(Nc3nc4ccccc4n3Cc3ccc(F)cc3)CC2)C(C)(C)c2ccccc21
Cell line: U-87 MG
Tested at: concentration not given
Reference: DMSO
refers to | log2 fold change
FSBP mRNA | 0.965
SAMD8 mRNA | 1.05
EAF1 mRNA | 1.18
AIFM2 mRNA | 1.4
SPRY2 mRNA | 0.872
PNRC1 mRNA | 2.47
KANK2 mRNA | -2.12
OTUD1 mRNA | 1.03
ABCA13 mRNA | 1.7
TMTC4 mRNA | -1.18
TAPBP mRNA | -0.884

Block 5
Cell line: HCC1569
Technique: in-cell western
Refers to: CDK1 phospho-Thr14
Time: 24 h
Compound | IC50 [nM]
Cc1ccc(O)c(C)c1-c1cnc2[nH]c(-c3cnc(N4CCC5(CC4)CC(CN4CCN(c6ccc(NC7CCC(=O)NC7=O)cc6F)CC4)C5)nc3)cc2c1C#N (stereo not drawn) | 74
Cc1ccc(O)c(C)c1-c1cnc2[nH]c(-c3cnc(N4CCC(CN5CCN(c6cc7c(cc6F)n(C6CCC(=O)NC6=O)c(=O)n7C)CC5)CC4)nc3)cc2c1C#N (stereo not drawn) | 136
Cc1ccc(O)c(C)c1-c1cnc2[nH]c(-c3cnc(N4CCC(CN5CCN(c6ccc(NC7CCC(=O)NC7=O)cc6F)CC5)CC4)nc3)cc2c1C#N (stereo not drawn) | 53
Cc1ccc(O)c(C)c1-c1cnc2[nH]c(-c3cnc(N4CCC(CN5CCC(c6ccc(NC7CCC(=O)NC7=O)cc6F)CC5)CC4)nc3)cc2c1C#N (stereo not drawn) | 56
Cc1ccc(O)c(C)c1-c1cnc2[nH]c(-c3cnc(N4CCC(CN5CCN(c6ccc(NC7CCC(=O)NC7=O)c(F)c6)CC5)CC4)nc3)cc2c1C#N (racemic) | 74
Cc1ncc(-c2cc3c(C#N)c(-c4c(C)ccc(O)c4C)cnc3[nH]2)cn1 | 96
Cc1ccc(O)c(C)c1-c1cnc2[nH]c(-c3cnc(N4CCC(CCN5CCN(c6ccc(NC7CCC(=O)NC7=O)cc6F)CC5)CC4)nc3)cc2c1C#N (stereo not drawn) | 17

Other studies, line by line
DHAD: Dihydroxy-acid dehydratase, chloroplastic (DHAD, Arabidopsis thaliana, UniProt Q9LIR4)
UniProt Q9LIR4, sequence (whole entry, looked up): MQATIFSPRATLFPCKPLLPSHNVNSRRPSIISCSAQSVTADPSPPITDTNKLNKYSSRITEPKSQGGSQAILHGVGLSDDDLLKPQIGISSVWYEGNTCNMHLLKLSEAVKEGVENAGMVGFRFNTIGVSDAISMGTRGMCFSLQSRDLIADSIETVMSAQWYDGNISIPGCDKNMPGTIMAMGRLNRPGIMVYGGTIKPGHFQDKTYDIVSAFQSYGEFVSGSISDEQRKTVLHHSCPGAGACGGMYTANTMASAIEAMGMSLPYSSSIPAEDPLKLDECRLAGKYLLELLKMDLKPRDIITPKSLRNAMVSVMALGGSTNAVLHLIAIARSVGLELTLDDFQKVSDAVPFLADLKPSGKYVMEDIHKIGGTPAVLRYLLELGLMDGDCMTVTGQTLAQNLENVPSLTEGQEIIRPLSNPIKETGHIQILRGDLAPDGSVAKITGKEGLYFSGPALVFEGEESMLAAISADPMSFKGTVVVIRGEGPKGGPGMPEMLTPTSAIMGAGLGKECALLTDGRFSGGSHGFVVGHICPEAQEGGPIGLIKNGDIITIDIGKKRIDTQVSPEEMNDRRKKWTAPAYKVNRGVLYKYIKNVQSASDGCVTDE
BTK: Tyrosine-protein kinase BTK (BTK, Homo sapiens, UniProt Q06187)
UniProt Q06187, sequence (whole entry, looked up): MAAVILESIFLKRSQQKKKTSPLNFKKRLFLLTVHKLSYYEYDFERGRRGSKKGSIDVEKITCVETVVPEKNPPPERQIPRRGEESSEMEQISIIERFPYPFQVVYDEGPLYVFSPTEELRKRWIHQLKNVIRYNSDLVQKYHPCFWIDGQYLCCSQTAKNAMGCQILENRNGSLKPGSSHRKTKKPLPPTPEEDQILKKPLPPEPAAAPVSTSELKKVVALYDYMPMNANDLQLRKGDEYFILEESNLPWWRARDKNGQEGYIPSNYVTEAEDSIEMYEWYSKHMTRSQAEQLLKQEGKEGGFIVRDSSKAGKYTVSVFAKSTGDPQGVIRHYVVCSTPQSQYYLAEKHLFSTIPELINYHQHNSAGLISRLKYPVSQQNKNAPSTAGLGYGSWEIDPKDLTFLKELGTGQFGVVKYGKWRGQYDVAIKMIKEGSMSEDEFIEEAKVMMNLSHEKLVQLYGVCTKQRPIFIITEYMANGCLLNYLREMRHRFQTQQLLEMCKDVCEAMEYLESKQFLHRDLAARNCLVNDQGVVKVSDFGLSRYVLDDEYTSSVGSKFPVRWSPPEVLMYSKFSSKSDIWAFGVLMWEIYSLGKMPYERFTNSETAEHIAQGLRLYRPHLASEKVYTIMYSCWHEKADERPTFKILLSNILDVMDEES
Structure (SMILES) | tested on | assay | system | conditions | scale | measurement | value
COCC1CC2C(CCC3(C)C(O)CCC23)c2ccc(O)cc21 (stereo not drawn) | A549 | DNA microarray, refers to: CCL11 |  | concentration not given | reference: untreated A549 cells | expression ratio | 1
O=C(O)C1(O)Oc2cc(Cl)ccc2N(Cc2ccccc2)C1=O (stereo not drawn) | DHAD | microscale thermophoresis |  |  |  | Kd | 31700 nM
CCOC(=O)/C=C/CNCCCCN1c2cc(Cl)ccc2CCc2cnn(C)c21 | NCI-H292 | cell growth or viability, ATP luminescence |  |  |  | IC50 | 2260 nM
Cc1nc(C)c(C=[N+]([O-])C(C)(C)C)nc1C | rat cerebellar granule neurons | TUNEL |  | 300 µM, 2 h pretreatment, added: MPP+ 150 µM for 24 h |  | apoptotic cells | 31.3%
CCOc1ccc2nc(Sc3nc(Nc4ccc(I)cc4)nc(N4CCOCC4)n3)sc2c1 | L444P/L444P Gaucher fibroblasts | 4-MUG hydrolysis in lysate |  | 1 µM, 72 h | reference: vehicle | enzyme activity | 112% and 114% and 116% and 110% and 122%
CCN1C(=O)C(O)(C(=O)O)Oc2cc(F)ccc21 (stereo not drawn) | DHAD | microscale thermophoresis |  |  |  | Kd | 132000 nM
CC(C)/C=C(\C#N)C(=O)N1CCC[C@@H](n2nc(-c3ccc(Oc4ccccc4)cc3)c3c(N)ncnc32)C1 | BTK | fluorescence competition |  | room temperature |  | residence time | 5460 ± 360 min
COc1ccc2c(c1)OC(O)(C(=O)O)C(=O)N2Cc1ccccc1 (stereo not drawn) | DHAD | microscale thermophoresis |  |  |  | Kd | 4590 nM
CCONC(=O)/C=C/CNCCCCN1c2cc(Cl)ccc2CCc2cnn(C)c21.O=C(O)/C=C\C(=O)O |  |  | mouse plasma | 5 µM |  | half-life | 32.6 ± 1.9 min
CCCN1C(=O)C(O)(C(=O)O)Oc2cc(F)ccc21 (stereo not drawn) | Arabidopsis thaliana |  |  | foliar spray, 200 µg/mL, 20 days |  | fresh weight inhibition | 54.1%
CC(C)(C=C(C#N)C(=O)N1CCCC1Cn1nc(-c2ccc(Oc3ccccc3)cc2F)c2c(N)ncnc21)N1CCOCC1 (stereo not drawn) | BTK | enzyme activity, inhibitor |  | 15 min preincubation, added: 16 µM ATP |  | IC50 | 1.9 ± 0.2 nM

A few entries again (block 4):
refers to | log2 fold change
FSBP mRNA | 0.965
AIFM2 mRNA | 1.4
KANK2 mRNA | -2.12
TAPBP mRNA | -0.884
SPRY2 mRNA | 0.872
OTUD1 mRNA | 1.03
ABCA13 mRNA | 1.7
